Published values of several laboratories.
Compare with care: the assays were run in different laboratories. ± gives the spread as reported.

C[C@H](N)[C@H]1O[C@@H](O[C@@H]2[C@@H](O)[C@H](N)C[C@H](N)[C@H]2O[C@H]2O[C@H]([C@@H](C)O)[C@@H](O)[C@H](O)[C@H]2N)[C@H](O)[C@@H]1O — IC50 (Leishmania tarentolae ribosome; cell-free translation, inhibitor, measured: EGFP reporter; Leishmania tarentolae S30 extract): 0.4 ± 0.03 µM
CCCCCO[C@H]1[C@H](O)[C@@H](N)[C@@H](O[C@H]2[C@H](O[C@@H]3O[C@H](CO)[C@@H](O[C@H]4O[C@@H](CN)[C@@H](O)[C@H](O)[C@H]4N)[C@H]3O)[C@@H](O)[C@H](N)C[C@@H]2N)O[C@@H]1CO — IC50 (rabbit reticulocyte ribosome; luciferase translation, cell-free translation; rabbit reticulocyte lysate): 49.7 ± 3.48 µg/mL
O=C1c2ccc3c4cccc5c(N6CCNCC6)ccc(c6ccc(c2c36)C(=O)N1CCN1CCCCC1)c54 — IC50 (human telomerase; modified TRAP; cell-free): 6.9 ± 0.2 µM
CN[C@@H]1[C@H](O)[C@H](NC)[C@H]2O[C@]3(O)[C@H](O[C@@H]2[C@H]1O)O[C@H](C)C[C@H]3NC(=O)Cc1ccccn1 — IC50 (Mycolicibacterium smegmatis 70S ribosome; translation, luciferase reporter): 0.89 µg/mL
CCN(CC)CCN1C(=O)c2ccc3c4cccc5c(N6CCNCC6)ccc(c6ccc(c2c36)C1=O)c54 — IC50 (human telomerase; modified TRAP; cell-free): 6.7 ± 0.3 µM
Cc1cccc(C)c1NC(=O)[C@H]1CCN(Cc2ccccc2)C1 — IC50 (Nav1.4, Pelophylax lessonae; sodium current, use-dependent blocker, vaseline gap voltage clamp; skeletal muscle fibres; 10 Hz pulse trains): 2.3 ± 0.1 µM
N/C(=N\O)c1ccc2c(c1)N(Cc1ccc(C(=O)NO)cc1)c1ccccc1O2 — IC50 (HeLa nuclear HDACs; enzyme activity, inhibitor; together with: Boc-Lys(Ac)-AMC): 0.29 ± 0.01 µM
CCN(CC)CCN1C(=O)c2ccc3c4cccc5c(NCCN)ccc(c6ccc(c2c36)C1=O)c54 — IC50 (human telomerase; modified TRAP; cell-free): 4.1 ± 0.5 µM
N/C(=N\O)c1ccc2c(c1)Oc1ccccc1N2Cc1ccc(C(=O)NO)cc1 — IC50 (HeLa nuclear HDACs; enzyme activity, inhibitor; together with: Boc-Lys(Ac)-AMC): 0.29 ± 0.02 µM
C=CCO[C@H]1[C@H](O)[C@@H](N)[C@@H](O[C@H]2[C@H](O[C@@H]3O[C@H](CO)[C@@H](O[C@H]4O[C@@H](CN)[C@@H](O)[C@H](O)[C@H]4N)[C@H]3O)[C@@H](O)[C@H](N)C[C@@H]2N)O[C@@H]1CO — IC50 (rabbit reticulocyte ribosome; luciferase translation, cell-free translation; rabbit reticulocyte lysate): 50 ± 16.8 µg/mL
CN[C@H]1[C@@H](O)[C@@H](NC)C[C@H]2O[C@@H]3O[C@H](C)CC(=O)[C@]3(O)O[C@H]12 — IC50 (Mycolicibacterium smegmatis 70S ribosome; translation, luciferase reporter): > 60 µg/mL
COCOC[C@H]1O[C@H](O[C@H]2[C@H](O[C@@H]3O[C@H](CO)[C@@H](O[C@H]4O[C@@H](CN)[C@@H](O)[C@H](O)[C@H]4N)[C@H]3O)[C@@H](O)[C@H](N)C[C@@H]2N)[C@H](N)[C@@H](O)[C@@H]1OCOC — IC50 (rabbit reticulocyte ribosome; luciferase translation, cell-free translation; rabbit reticulocyte lysate): 91 ± 8 µg/mL
O=C(/C=C/c1ccc(Cl)cc1)N1CCC2(CC1)CN(Cc1ccc(Cl)c(Cl)c1)C(=O)O2 — IC50 (human EBI2; ERK1/2 phosphorylation, antagonist; CHO expressing EBI2; together with: 7α,25-OHC 1 nM): 0.008 µM
NC[C@@H]1O[C@H](O[C@H]2[C@@H](O)[C@H](O[C@@H]3[C@@H](O)[C@H](N)C[C@H](N)[C@H]3O[C@H]3O[C@H](CO)[C@@H](OCCO)[C@H](O)[C@H]3N)O[C@@H]2CO)[C@H](N)[C@@H](O)[C@@H]1O — IC50 (rabbit reticulocyte ribosome; luciferase translation, cell-free translation; rabbit reticulocyte lysate): 24 ± 5.1 µg/mL
Cc1cccc(C)c1NC(=O)[C@H]1CCCN1Cc1ccccc1 — IC50 (Nav1.4, Pelophylax lessonae; sodium current, use-dependent blocker, vaseline gap voltage clamp; skeletal muscle fibres; 10 Hz pulse trains): 10.1 ± 1.8 µM
O=C([O][Ti+2][O]C(=O)c1ccc(P(c2ccccc2)c2ccccc2)cc1)c1ccc(P(c2ccccc2)c2ccccc2)cc1.[Cl][Au].[Cl][Au].c1cc[cH-]c1.c1cc[cH-]c1 — IC50 (thioredoxin reductase human; enzyme activity, inhibitor; CAKI-1; 12 h): 4.75 µM

A few entries again:
O=C([O][Ti+2][O]C(=O)c1ccc(P(c2ccccc2)c2ccccc2)cc1)c1ccc(P(c2ccccc2)c2ccccc2)cc1.[Cl][Au].[Cl][Au].c1cc[cH-]c1.c1cc[cH-]c1 — IC50 (thioredoxin reductase human; enzyme activity, inhibitor; CAKI-1; 12 h): 4.75 µM
O=C(/C=C/c1ccc(Cl)cc1)N1CCC2(CC1)CN(Cc1ccc(Cl)c(Cl)c1)C(=O)O2 — IC50 (human EBI2; ERK1/2 phosphorylation, antagonist; CHO expressing EBI2; together with: 7α,25-OHC 1 nM): 0.008 µM
